Measurements pooled from the literature.
Each numbered part is a random draw from the data of one study; scales do not carry over between parts.

Series 1
Target: RNA binding protein fox-1 homolog 2, RRM domain, GST-SBP tag (RBFOX2, Homo sapiens, UniProt O43251-10, residues 100-194)
Technique: RNA Bind-n-Seq
Molecule type: RNA
Matrix: in vitro
Tested at: 365 nM
Notes: natural RNA segment, single round, ends assumed
Baseline: no-protein control
Direction: higher = stronger binding
Residues (chain): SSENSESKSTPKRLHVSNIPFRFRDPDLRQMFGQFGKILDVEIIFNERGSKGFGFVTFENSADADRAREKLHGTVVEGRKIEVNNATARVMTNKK
Sequence | RBNS enrichment (R)
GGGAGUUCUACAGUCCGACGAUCAUGGAAGUGGACUGAAGCCUAUGUAGAAACACACACACACUGAACAUUGUUAUUCAUUUUGUAAAAUACUAGUCUUUAUUUUCAUUUUUUGUAAAAUUUAAACAUCGUAUUGGAAUUCUCGGGUGCCAA | 0.612
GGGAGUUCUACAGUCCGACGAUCUGCAGAGAUUUUAUAUAUAUUUUGUUUGUAAUGAGCCAUUCUCAAUAAACAUUAUUCUCACUGCAAAUGGUGGUAGCCCCUGGCUGGCCUUUAUGAAGCUGUGUUGAUCUUGGAAUUCUCGGGUGCCAA | 0.434
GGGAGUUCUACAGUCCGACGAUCUAUCUAAACUGCACUGAUGAACUAGAUUAAAGCCUUGGGAGAUUUAUACUAUAAAUUCAGUGAUGGCAAGAACCAACACUGUUUUUUUGUGAGAAUUGUCAGUGUAACUAUGGAAUUCUCGGGUGCCAA | 0.442
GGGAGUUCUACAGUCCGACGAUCCAUGCUUCCAUAUAUAUUACCCUGAACUUUCUAUCACCACAGAUAAAGAUUUUGUUUUGCCCUGCAAAUAAAAAGACAAUUCCUUAUUGUCUGAAUGUAAUACAGUCUUCUGGAAUUCUCGGGUGCCAA | 0.818
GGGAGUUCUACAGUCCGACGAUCAUAGUUAAUAUUAGAAACUCUUUAAUAGUUUUCCUUUCAGUUUGUGAGCUCUUCUCUGUCGCCCUGAAGGGUCACUGUAUUCUGUAUGAAUGCAUGGCAUGAUACAACUAUGGAAUUCUCGGGUGCCAA | 3.3
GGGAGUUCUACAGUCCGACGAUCUCUCUUGGGAAGUCACCUGUGAGAUGUCUUCUCCCUCAUCAUCCUGAGCCUUAUCUAAUCCAGGUAGCUUCCUAGUUAAAGACUUGGUUAUCUGCUUCUUUUUACUUCUCUGGAAUUCUCGGGUGCCAA | 0.373
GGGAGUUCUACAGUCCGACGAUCGUUCAAAGUCAAGACAGGUAAAAGGGCAUUCAUCAUUGUGCCUCAUAUCAGGUUUUGAUGAAUAUAUGUGUGUGUGUGUGUGUGUGUGUGUGUGUGUGUGUAGAGGGAUGUGGAAUUCUCGGGUGCCAA | 2.6
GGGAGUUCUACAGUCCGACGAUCUCUUUGUUUUCUAAUGCAAUAUGUGCCUCUUCCCCUCGCUGAACCUCUAAGACAUAUGUAUUUCACACUAGAUGGCGUCGGACAUUGCCAUAUCUCCUGUGGCACCUAGGUGGAAUUCUCGGGUGCCAA | 0.365
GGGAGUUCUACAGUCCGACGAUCUAAAACACUUUCAGCCACCCAGAUUAAUUAAAGUGGAGCAGUGGAGCCCCUGGCUGGGAGAUGGCCUCCAGAGGAGCAGCUGCAGGGCAUGUUCUGGGCUUAGCGACAGAUGGAAUUCUCGGGUGCCAA | 1.57
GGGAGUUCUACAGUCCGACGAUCGAGAAUUGCUUGAACCCAGGAGGUGGAGGUUGCAGUAAGCCAAGAUCACACCACUGCACUCCAACCUGGACAACAGAGCGAGACUCCAUCUCAAAAAAAAAAAAAAAUUGUGGAAUUCUCGGGUGCCAA | 0.751
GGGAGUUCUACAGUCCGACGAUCUUUAGGCUUGAGUCCUCAAGCCUCUCCUUUUCGUCCAUAAUAAAAUGUUUAAGUUAUUAAGAUCCUUUUGACGGCUUCUCUCUGCUUCACACUCAUGCUGAUGGCUGAUCUGGAAUUCUCGGGUGCCAA | 0.328
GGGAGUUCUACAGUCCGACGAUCGCGCAGGCGCUGUCUGGCUCAGCUGCCCCCUUGGGGUGGGCAGGGAGGACCAGACUGCUUGGGUGAUUGGGGUCCCCAGCCUAUUCCCUUUCUCUUGAGGGGAGGGUAGUUGGAAUUCUCGGGUGCCAA | 0.226

Series 2
Target: Fragile X messenger ribonucleoprotein 1, C-terminal low-complexity region (Fmr1, Mus musculus, UniProt P35922)
Technique: RNA Bind-n-Seq
Molecule type: RNA
Matrix: in vitro
Tested at: 200 nM
Notes: whole 134-nt RNA, ends assumed
With: 150 mM KCl
Baseline: input library
Direction: higher = stronger binding
Sequence | log2 enrichment
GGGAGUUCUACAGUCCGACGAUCUGGCCCUGGUGGCAUGCGGGGAGGAAGAGGUGGCCUCACGGAUCGUGGUGGUCCCGGUGGAAUGUUCAGAGGUGGCCGUGGUGGAGACAGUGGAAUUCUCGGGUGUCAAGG | 0.234
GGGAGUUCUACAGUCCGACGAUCUCAAGUCCUGUGCUACACAUCGUAUGUACCGAAUCGGAAAGGAAAGGGAAAGGGGAAAGUAUUAUGUUACGCCGUUCGGAUCUGCACUUCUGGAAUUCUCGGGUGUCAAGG | -0.494
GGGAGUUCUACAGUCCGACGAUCUCAGCAACCACCUCAACUCAUUGACUCCGCCAACAUCCGUCAGGAGGAUGCCUUUGAUAACAACAGUGACAUUGCUGAAGAUGGUGGCCAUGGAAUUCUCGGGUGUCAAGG | -1.25
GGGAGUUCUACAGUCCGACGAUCUGGCCCUGGUGACAUGCGGGGAGGAAGAGGUGGCCUCAUGGAUCGUGGUGGUCCCGGUGGAAUGUUCAGAGGUGGCCGUGGUGGAGACAGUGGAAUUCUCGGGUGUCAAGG | -0.0815
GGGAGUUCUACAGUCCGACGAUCCUCAAGUCCUGUGCUACACAUCGUAUGUACCGAAUCGGAGGUUUUUUUGGAGGAAAGUAUUAUGUUACGCCGUUCGGAUCUGCACUUCCAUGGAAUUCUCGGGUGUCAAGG | -0.178
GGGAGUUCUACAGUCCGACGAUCAAGUCCUGUGCUACACAUCGUAUGUACCGAAUCGGUUUUGGGUUUUGGUUUUGGGGAAAGUAUUAUGUUACGCCGUUCGGAUCUGCACUUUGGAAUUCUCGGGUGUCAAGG | -0.566
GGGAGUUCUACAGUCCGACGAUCUUUUCUGUUUGAAACAGUUUUAUACUUUCUGAUAUAGUACUUGAAAUUCUUACCAGAAAAUUACUUUGGAGUUUUGAAGCCUUUAUUAAUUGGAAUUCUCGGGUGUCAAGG | -0.356
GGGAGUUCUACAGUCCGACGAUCUCUCAGCAGGCGCAUCUACACUAGUGACCUGAGGAGAGAAACCCUAACCCCACAAUGGCUGCAUCUUCUCUGAAGACGAGACUGAUGCUCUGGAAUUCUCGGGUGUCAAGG | -0.251
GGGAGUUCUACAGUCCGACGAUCCACAGACAACACGCGCCCACACAGACACAGAGGGAAGGGGUUGGGAUGGGGACAGGGUGCACAGCAGGGCGGGGUAGGACCCCAGCCCCUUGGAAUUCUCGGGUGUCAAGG | 1.35
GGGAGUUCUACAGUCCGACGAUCCACAGACAACACGCACCCACACAGACACAGAGGGAAGGGGUUGGGAUCGGGACAGGGUGCACAGCAGGGCGGGGUAGGACCCCAGCCCCUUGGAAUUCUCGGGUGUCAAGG | 1.19
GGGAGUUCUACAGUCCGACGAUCUCCUCAAGUCCUGUGCUACACAUCGUAUGUACCGAAUCGGUGGAAAGGUGGAAAGUAUUAUGUUACGCCGUUCGGAUCUGCACUUCCAGCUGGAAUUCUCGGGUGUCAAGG | -0.321
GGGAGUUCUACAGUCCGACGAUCUGUAGAAAAGGCACUGGACUAACACUUGGCUGUAUCUUGUAACAGGCAUGUUAUGUUACCCAGAGAACUUUCCAAACAAGUACCUAAAACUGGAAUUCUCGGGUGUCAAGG | -0.109
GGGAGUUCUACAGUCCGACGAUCCUCAAGUCCUGUGCUACACAUCGUAUGUACCGAAUCGGAAAAAAAGGUGGAGGAAAGUAUUAUGUUACGCCGUUCGGAUCUGCACUUCCAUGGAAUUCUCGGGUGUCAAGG | -0.143
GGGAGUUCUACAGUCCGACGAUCGUCCUGUGCUACACAUCGUAUGUACCGAAUCGGAAAAAGGUUUUUUUGGAAAAAAAGGAAAGUAUUAUGUUACGCCGUUCGGAUCUGCACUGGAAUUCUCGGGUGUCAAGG | -1.09

Series 3
Target: Interferon regulatory factor 5, full length, phosphomimetic (IRF5, Homo sapiens, UniProt Q13568-2, residues 1-514, S451D/S453D/S456D/S462D)
Technique: protein-binding microarray
Molecule type: double-stranded DNA, one strand shown
Matrix: in vitro
Tested at: 940 nM top
Notes: 60-bp whole probe
With: salmon DNA 0.4 mg/ml
Baseline: random background probes
Direction: higher = stronger binding
Constant ends, left off below: GCCTAGCAC … GTCTTGATTCGCTTGACGCTGCTG
Sequence | fitted relative affinity [z-score]
GACTGTCTCGGACTGGGGACGTGCTAG | 0.607
TCAATTTTCCCCTACTGACTGTGCTAG | 1.16
TCAAATTTGGAAACCGAACTGTGCTAG | -0.517
ATAGGACTGGGTATCGGTTAGTGCTAG | 3.37
ATGACTCCCTCTCTGGCCAAGTGCTAG | 0.214
GACGATTTCGGGTATAGAGACGTGCTA | 0.79
GACGATTTCAGTCTCGAGGCGTGCTAG | 1.48
GTAGATTTCAGTTCCGATTAGTGCTAG | 1.91
TTAGATATCGGGACTGGAGTAGTGCTA | -0.139
GAGGCAAGGAGGGAGAACAGGTGCTAG | -0.862
CTAGTTGTACTTTCTATCTCTGTGCTA | 1.24
TCATCTCTGGGCTGTGGGACTGTGCTA | 0.334
GACGGAATCGACACTGGGGACGTGCTA | -0.211
GGCGGACTGGACTATCGGGACGTGCTA | -0.306
GACGATCTCAGTCTGGAGACGTGCTAG | -0.106
TTGGGACTGCTTATCCTTTAGTGCTAG | -0.513
TTAGGTCTCGGTCTGGGTTAGTGCTAG | 4.4
GACGGACTGCTTAACCTGACGTGCTAG | -0.396
TTAGGACTGGGTATCGGATAGTGCTAG | 0.87
TTAGGACTGCTTCTCGTTTAGTGCTAG | 0.182
CTTGCTACACATCTCACTCTGTGCTAG | 0.873
TCATGTGTGCATCTATCACTGTGCTAG | -0.169
TTAGGTTTCGACTATCGGTGAGTGCTA | 9.82
TCAGATATGCGGTAAGGGACTGTGCTA | -0.334
GTAGGTTCCGGTTTCGGTTAGTGCTAG | 9.5

Series 4
Target: Prothrombin, mature alpha-thrombin (F2, Homo sapiens, UniProt P00734)
Technique: aptamer microarray, sandwich
Molecule type: DNA with 2'F-ANA
Matrix: in vitro
Tested at: 200 nM
Notes: whole 15-mer aptamer, many near background
With: Cy3 exosite-II aptamer, 400 nM
Direction: higher = stronger binding
Sequence: GGTTGGTGTGGTTGG
Modification | mean fluorescence intensity [a.u.]
2'F-ANA at 2 4 8 10 11 12 13 14 15 | 57
2'F-ANA at 3 5 7 8 10 11 14 | 54.9
2'F-ANA at 1 2 3 6 9 14 15 | 67.1
2'F-ANA at 5 7 8 10 12 14 | 44.4
2'F-ANA at 2 4 8 13 14 15 | 104
2'F-ANA at 4 7 8 9 12 13 | 469
2'F-ANA at 1 2 3 4 6 7 8 12 15 | 367
2'F-ANA at 1 2 4 5 6 8 9 10 11 | 52.2
2'F-ANA at 1 4 8 10 13 14 | 44.8
2'F-ANA at 3 4 5 6 7 8 12 13 14 | 77.8
2'F-ANA at 4 6 9 11 14 15 | 68.3
2'F-ANA at 5 6 7 10 11 12 13 | 48.9
2'F-ANA at 3 4 5 8 10 12 | 61.7
2'F-ANA at 1 4 5 6 7 8 9 10 11 | 55.2
2'F-ANA at 3 5 8 10 14 | 48.6
2'F-ANA at 2 3 7 8 9 10 15 | 435

Series 5
Target: Histone acetyltransferase KAT6A, both winged helices, GST fusion (KAT6A, Homo sapiens, UniProt Q92794, residues 1-181)
Technique: protein binding microarray
Molecule type: double-stranded DNA, one strand shown
Matrix: in vitro
Tested at: not given
Notes: 8-mer, flanks averaged, mean of 2 arrays, mostly near background
Baseline: not given
Direction: higher = stronger binding
Construct (chain): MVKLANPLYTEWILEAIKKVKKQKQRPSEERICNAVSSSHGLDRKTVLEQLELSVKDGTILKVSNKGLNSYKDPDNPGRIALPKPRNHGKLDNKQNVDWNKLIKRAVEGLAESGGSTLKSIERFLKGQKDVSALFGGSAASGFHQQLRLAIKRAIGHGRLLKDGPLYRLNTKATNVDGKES
Sequence | E-score
GTAGGTCA | -0.117
ACATTACC | 0.0568
GAACGTGC | 0.0588
ACAGAGAC | -0.0623
GACCTACC | -0.159
CTACCTCA | -0.174
ATGAGATA | -0.0218
GCAACGTA | -0.0477
ACTGGCAG | -0.0228
CCGAAGAA | -0.0429
ACGGATCG | 0.191
ACGGGGCT | 0.0794
CCCACAGC | -0.18
CGGAAAGA | 0.193
ATAGGGAA | -0.152
AAACATGC | 0.0174
